# Experimental data from different studies.
# Lines come from different studies, so protocols differ. Several values in a cell are separate wells, animals, samples, runs or records. ± marks the error that the study gave.
# MT-CYB/UQCRFS1: MT-CYB/UQCRFS1 (Homo sapiens, UniProt P00156+P47985)
# Dehaloperoxidase B ferric: Dehaloperoxidase B, ferric (Amphitrite ornata, UniProt Q9NAV7)
# KEAP1 Kelch domain: Kelch-like ECH-associated protein 1, Kelch domain (KEAP1, Homo sapiens, UniProt Q14145)
# TOP2A: DNA topoisomerase 2-alpha (TOP2A, Homo sapiens, UniProt P11388)
Compound,target,test,test system,conditions,scale,measurement,result
CC(C)C(=O)Nc1n[nH]c2cc(-c3cccc(NS(=O)(=O)C4CC4)c3)ccc12,"PIP5K1C (Homo sapiens, UniProt O60331)",ADP-Glo,,"10 µM, together with: 10 µM ATP",,ADP produced,0.626 µM
OC[C@H]1OC(O)[C@H](O)[C@@H](O)[C@@H]1O (stereo partly shown),"Hexokinase-3 (HK3, Homo sapiens, UniProt P52790, E254A)",substrate inhibition,,"mutant E254A, partial substrate inhibition model, together with: ATP 20 mM",,kcat,78 ± 4 s⁻¹
CC(NC(=O)CCCc1ccc2ccc3cccc4ccc1c2c34)C(=O)NO (stereo not shown),"HDAC8 (Homo sapiens, UniProt Q9BY41)",ITC,Tris-HCl buffer,288 K,,TΔS°,6.7 kcal/mol
O=c1[nH]c(-c2ccccn2)nc2c1CSCC2,"Protein lin-28 homolog A (Mus musculus, UniProt Q8K3Y3)",,,,,Hill slope,-1.1
CC(C)C[C@H](NC(=O)[C@@H](N)[C@@H](C)O)C(=O)N[C@@H](CCC(N)=O)C(=O)N1CCC[C@H]1C(=O)N1CCC[C@H]1C(=O)N[C@@H](C)C(=O)N[C@@H](CO)C(=O)N[C@@H](CO)C(=O)N[C@@H](CCCNC(=N)N)C(=O)N[C@H](CCCNC(=N)N)C(=O)N[C@@H](CCCNC(=N)N)C(=O)N[C@@H](Cc1c[nH]cn1)C(=O)N[C@@H](Cc1ccccc1)C(=O)N[C@@H](Cc1c[nH]cn1)C(=O)N[C@@H](Cc1c[nH]cn1)C(=O)N[C@@H](C)C(=O)N[C@@H](CC(C)C)C(=O)N1CCC[C@H]1C(=O)N1CCC[C@H]1C(=O)N[C@@H](C)C(=O)N[C@@H](CCCCNC(=N)N)C(=O)O,"C3AR1 (Homo sapiens, UniProt Q16581)","β-arrestin recruitment, agonist, Tango",HTLA transfected,overnight,,Emax,91.6 % basal
NC(=O)NO,MT-CYB/UQCRFS1,"complex III-dependent respiration, Seahorse XF96",HCT-116,"150 µM, 24 h",baseline: control,oxygen consumption rate,92.2 ± 10.4%
O=C1C=Nc2ccc(Br)cc21,Dehaloperoxidase B ferric,"product, HPLC",,"together with: 5-bromoindole 500 µM, H2O2 1000 µM",,share of total products,47.1%
C[C@H](CCC(C)(C)O)[C@H]1CC[C@H]2[C@@H]3CC=C4C[C@@](C)(O)CC[C@]4(C)[C@H]3CC[C@]12C,"Glutamate NMDA receptor; GRIN1/GRIN2B (GRIN1/GRIN2B, Homo sapiens, UniProt Q05586+Q13224, D552A)","positive allosteric modulator, two-electrode voltage clamp",Xenopus oocytes expressing GluN1-D552A,"10 µM, 0.02% cremophor, together with: 100 µM glutamate and glycine",baseline: without compound,current response,167 ± 7.8%
NC(=O)NOCCCCCCCCCCCCCC[P+](c1ccccc1)(c1ccccc1)c1ccccc1.O=C([O-])C(F)(F)F,MT-CYB/UQCRFS1,"complex III-dependent respiration, Seahorse XF96",HCT-116,"1 µM, 24 h",baseline: control,oxygen consumption rate,67.5 ± 5.85%
O=C1Nc2ccc(Br)cc2C1=O,Dehaloperoxidase B ferric,"product, HPLC",,"together with: 5-bromoindole 500 µM, H2O2 250 µM",,share of total products,3%
CC(=C/C(=O)O)/C=C/C=C(\C)C1C=C2C(C)(C)CCCC2(C)O1 (stereo not shown),"Rhodopsin (RHO, Homo sapiens, UniProt P08100, E181K)","ER retention, immunostaining co-localization, item: opsin with calnexin",COS-7 transfected E181K,10.00 µM,,Pearson correlation coefficient,0.53
Nc1ncnc2c1ncn2[C@@H]1O[C@H](COP(=O)(O)CP(=O)(O)OP(=O)(O)O)[C@@H](O)[C@H]1O,"P2X purinoceptor 1 (P2RX1, Homo sapiens, UniProt P51575, D170A)",saturation binding,,130 nM,,specific binding,452 corrected cpm and 371 corrected cpm and 574 corrected cpm
CC(=O)N[C@@H](CO)C(=O)N[C@@H](CC(C)C)C(=O)N[C@@H](CCC(=O)O)C(=O)N[C@@H](CCC(=O)O)C(=O)N1CCC[C@H]1C(=O)N[C@@H](Cc1c[nH]cn1)C(=O)N[C@@H](CO)C(=O)N1CCC[C@H]1C(=O)N[C@@H](CCC(=O)O)C(=O)N[C@H](C(=O)NCC(=O)N[C@@H](CCC(=O)O)C(=O)N[C@@H](CCCCN)C(=O)N[C@H](C(=O)N[C@H](C(=O)N[C@@H](C)C(=O)NCC(=O)N[C@@H](CCC(=O)O)C(=O)N[C@H](C(=O)N[C@@H](CC(N)=O)C(N)=O)C(C)C)C(C)C)C(C)C)[C@@H](C)O,KEAP1 Kelch domain,ITC,,concentration not given,,binding stoichiometry,1.04
CC[C@@H]1[C@H](F)C(=O)N[C@@H]1COc1nccc2cc(C(N)=O)c(OC)cc12,"MAP3K2 (Homo sapiens, UniProt Q9Y2U5)","ATP-site probe binding, ActivX profiling",THP-1 cell lysate,"0.2 mM, Lys1 site",,inhibition,-5.2%
NC(=O)NOCCCCCCCCCCCCCCCC[P+](c1ccccc1)(c1ccccc1)c1ccccc1.O=C([O-])C(F)(F)F,MT-CYB/UQCRFS1,"complex III-dependent respiration, Seahorse XF96",HCT-116,"0.8 µM, 24 h",baseline: control,oxygen consumption rate,68.5%
C=CC(=O)Nc1cccc(CN(C(=O)Nc2cccc(C(F)(F)F)c2)C2CCN(C(C)CCC)CC2)c1 (stereo not shown),"DCN1-like protein 1 (Homo sapiens, UniProt Q96GG9)","covalent binder, LC-TOF mass spectrometry",,"60 µM, overnight, 4 °C, together with: DCN1-like protein 1 30 µM",,covalent adduct formation,0%
Oc1ccccc1-c1n[nH]cc1-c1ccnc2ccccc12,"TGFBR1 (Homo sapiens, UniProt P36897)","enzyme activity, radiometric kinase",,,baseline: LY selectivity fungal over TGFBR1,selectivity improvement,> 40 fold
O=C(COP(=O)(O)O)[C@@H](O)[C@H](O)[C@H](O)COP(=O)(O)O,"CTSC (Homo sapiens, UniProt P53634)",thermal proteome profiling,HepG2 cell lysate,"concentration not given, 57 over 37 °C",baseline: compound over control,thermal stability ratio,1.42 and 1.63 and 1.75
OC[C@H]1OC(O)[C@H](O)[C@@H](O)[C@@H]1O (stereo partly shown),hexokinase yeast,substrate,,"pH 8.0, 25 °C, 1.5 mM MgCl2, together with: ATP varied",,Km,400 µM
O=c1nc(SCc2cc(F)cc(C(F)(F)F)c2)nc(SCc2ccc3nc(Cl)ccc3c2)[nH]1,TOP2A,DNA cleavage,,"7.8 µM, together with: etoposide 50 µM",,linear DNA,16.9%
C=CC(=O)N1CCC(COCC(=O)N2CCN(c3nc(-c4cnc(N)nc4C(F)F)nc(N4CCOC[C@@H]4C)n3)CC2)CC1,"PIP4K2B (Homo sapiens, UniProt P78356)",KINOMEscan,,1 µM,,remaining binding,86%
Nc1ccc(C(=O)O)cc1,"BEST1, with wild-type BEST1 (Homo sapiens, UniProt O76090, L234P)","ion current, whole-cell patch clamp",HEK293 co-expressing mutant and wild-type,"concentration not given, voltage 80 mV",,current density,8.09 pA/pF and 43.9 pA/pF and 17.9 pA/pF and 24.4 pA/pF and 12.5 pA/pF and 15.4 pA/pF
NC(=O)NOCCCCCCCCCC[P+](c1ccccc1)(c1ccccc1)c1ccccc1.O=C([O-])C(F)(F)F,MT-CYB/UQCRFS1,"complex III-dependent respiration, Seahorse XF96",HCT-116,"3 µM, 24 h",baseline: control,oxygen consumption rate,97.8 ± 5.05%
CCN1CCC[C@H]1CNC(=O)c1c(O)c(Cl)cc(Cl)c1OC,"G-protein coupled receptor 161 (GPR161, Homo sapiens, UniProt Q8N6U8)","β-arrestin recruitment, TANGO luminescence, item: GPR161",,concentration not given,baseline: basal luminescence,log2 fold change,-0.058
CC1=C(/C=C/C(C)=C/C=C/C(C)=C/C=O)C(C)(C)CCC1,"Rhodopsin (RHO, Bos taurus, UniProt P02699, F273W)","retinal entry, Trp FRET",lipid bicelles,"28 °C, F273W mutant",baseline: wild-type rhodopsin,relative kon,2.6 ± 0.24
CC[C@H](C)[C@H](NC(=O)[C@@H]1CCCN1C(=O)[C@H](CC(C)C)NC(=O)[C@H](Cc1ccccc1)NC(=O)[C@H](CCC(=O)O)NC(=O)CNC(=O)[C@@H](NC(=O)[C@H](CCC(=O)O)NC(=O)[C@@H]1CCCN1C(=O)[C@H](CC(=O)O)NC(=O)[C@H](CC(C)C)NC(=O)[C@H](CCC(N)=O)NC(=O)[C@H](CC(C)C)NC(=O)[C@H](CCC(N)=O)NC(=O)[C@H](C)NC(=O)[C@H](Cc1ccccc1)NC(C)=O)[C@@H](C)O)C(=O)N[C@@H](CCC(N)=O)C(=O)N1CCC[C@H]1C(=O)N[C@@H](C)C(=O)N[C@@H](CCC(N)=O)C(N)=O,KEAP1 Kelch domain,"binding, ITC",,"pH 7, 298.15 K",,ΔG,-11.28 ± 0.04 kcal/mol
CCCCC[C@H](O)/C=C/[C@H]1[C@H](O)CC(=O)[C@@H]1C/C=C\CCCC(=O)O,"PTGER1 (Homo sapiens, UniProt P34995, C136A)","IP1 accumulation, agonist",AD293,"1 h, EP1 C136A mutant",,Emax,85 ± 7.5%
Cc1cccc(N2CC(C(=O)O)CC2=O)c1 (stereo not shown),"YTHDF2 (Homo sapiens, UniProt Q9Y5A9)","binding, affinity selection mass spectrometry",,,baseline: other proteins in batch,fold enrichment,1.08
NCCCC(=O)O,"SLC6A6 (Homo sapiens, UniProt P31641, L306A)","binding, microscale thermophoresis",,"61 nM, room temperature, together with: 50 nM labelled protein",higher = more binding,normalised MST signal,-0.0944
Nc1ncnc2c1ncn2[C@@H]1O[C@H](CO[P@](=O)(O)O[P@](=O)(O)O[P@@](=O)(O)S)[C@@H](O)[C@H]1O,"GUK1 (Homo sapiens, UniProt Q16774)",ITC,,molar ratio 3.506,,ΔH,-0.205 kcal/mol
CN1CCN(c2cc(-c3ccncc3)c(-c3ccc4ccccc4c3)nn2)CC1,"CXCR2 (Homo sapiens, UniProt P25025)","agonist, FLIPR",,12.5 µM,,activation,-0.2%
CCc1cnn2c(NCc3ccc[n+]([O-])c3)cc(N3CCCC[C@H]3CCO)nc12,"BRD4 (Homo sapiens, UniProt O60885)","19F NMR, item: tyrosine 118",,47 µM,baseline: free protein,chemical shift change,-0.015 ppm
CSc1ccc(C(=O)/C=C/c2cc(C)c(OC(C)(C)C(=O)O)c(C)c2)cc1,"Peroxisome proliferator-activated receptor alpha (Rattus norvegicus, UniProt P37230)","receptor activation, agonist",,species rat,baseline: internal control agonist,Emax,87%
NCCCCC(=O)O,"SLC6A6 (Homo sapiens, UniProt P31641, Y138A)","binding, microscale thermophoresis",,"250 µM, room temperature, together with: 50 nM labelled protein",higher = more binding,normalised MST signal,-0.00088
O=C(O)c1ccc(Nc2ncc3c(n2)-c2ccc(Cl)cc2C(c2c(F)cccc2F)=NC3)cc1,MLK1(h),kinase activity,,1 µM,,remaining activity,81%
COc1cc(-c2cc(C(C)=O)n3ccccc23)cc(OC)c1Cn1ccnc1,"Peregrin (BRPF1, Homo sapiens, UniProt P55201)",,,,,ΔTm,-3 °C
Nc1nc2c(ncn2[C@@H]2O[C@H](COP(=O)(O)O)[C@@H](O)[C@H]2O)c(=O)[nH]1,"GUK1 (Homo sapiens, UniProt Q16774, T83A)","enzyme activity, NADH-coupled",,125 µM,,reaction rate,20.6 s⁻¹ and 17.9 s⁻¹ and 16.4 s⁻¹
CC(C)CC(=O)N[C@H](C(=O)N[C@H](C(=O)N[C@@H](CC(C)C)[C@@H](O)CC(=O)N[C@@H](C)C(=O)N[C@@H](CC(C)C)[C@@H](O)CC(N)=O)C(C)C)C(C)C,"Cathepsin D (CTSD, Homo sapiens, UniProt P07339)",surface plasmon resonance,,,,dissociation rate constant,0.0016 s⁻¹
Nc1ncnc2c1ncn2[C@@H]1O[C@H](CSCC[C@H](N)C(=O)O)[C@@H](O)[C@H]1O,"GNAS, with Gbeta and Ggamma (Homo sapiens, UniProt P63092)",modulator,,"100 µM, without A2AR",baseline: Gs alone,GTP hydrolysis,92.3% and 93.1% and 96.7%
O=c1nc(SCc2ccc(C(F)(F)F)cc2)nc(SCc2csc3ccc(Cl)cc23)[nH]1,TOP2A,DNA relaxation,,1.95 µM,,mean relaxed DNA,93.2%
Cc1cc2c(cc1N1C(=O)c3cccc4c(Cl)ccc(c34)C1=O)n(C)c(=O)n2C,"Peregrin, isoform A (BRPF1, Homo sapiens, UniProt P55201)",thermal shift,,10 µM,,ΔTm,-0.4 °C
NC(=O)NOCCCCCCCCCCCCCCCCCCCC[P+](c1ccccc1)(c1ccccc1)c1ccccc1.O=C([O-])C(F)(F)F,MT-CYB/UQCRFS1,"complex III-dependent respiration, Seahorse XF96",HCT-116,"5 µM, 24 h",baseline: control,oxygen consumption rate,49%
C=CC(=O)N1CCC[C@@H](n2nc(-c3ccc(Oc4ccccc4)cc3)c3c(N)ncnc32)C1,"DYRK3 (Homo sapiens, UniProt O43781)",,,10 µM,,remaining activity,41.2%

# Excerpt of the above:
Compound,target,test,test system,conditions,scale,measurement,result
O=C1Nc2ccc(Br)cc2C1=O,Dehaloperoxidase B ferric,"product, HPLC",,"together with: 5-bromoindole 500 µM, H2O2 250 µM",,share of total products,3%
CSc1ccc(C(=O)/C=C/c2cc(C)c(OC(C)(C)C(=O)O)c(C)c2)cc1,"Peroxisome proliferator-activated receptor alpha (Rattus norvegicus, UniProt P37230)","receptor activation, agonist",,species rat,baseline: internal control agonist,Emax,87%
CC(C)C(=O)Nc1n[nH]c2cc(-c3cccc(NS(=O)(=O)C4CC4)c3)ccc12,"PIP5K1C (Homo sapiens, UniProt O60331)",ADP-Glo,,"10 µM, together with: 10 µM ATP",,ADP produced,0.626 µM
CC(=C/C(=O)O)/C=C/C=C(\C)C1C=C2C(C)(C)CCCC2(C)O1 (stereo not shown),"Rhodopsin (RHO, Homo sapiens, UniProt P08100, E181K)","ER retention, immunostaining co-localization, item: opsin with calnexin",COS-7 transfected E181K,10.00 µM,,Pearson correlation coefficient,0.53
O=C(COP(=O)(O)O)[C@@H](O)[C@H](O)[C@H](O)COP(=O)(O)O,"CTSC (Homo sapiens, UniProt P53634)",thermal proteome profiling,HepG2 cell lysate,"concentration not given, 57 over 37 °C",baseline: compound over control,thermal stability ratio,1.42 and 1.63 and 1.75
Cc1cccc(N2CC(C(=O)O)CC2=O)c1 (stereo not shown),"YTHDF2 (Homo sapiens, UniProt Q9Y5A9)","binding, affinity selection mass spectrometry",,,baseline: other proteins in batch,fold enrichment,1.08
